Measured values collected from several papers.
A part holds a random share of what one study measured.

Study 1
Target: Ras GTPase-activating protein-binding protein 1, RRM domain (G3BP1, Homo sapiens, UniProt Q13283)
Sequence of UniProt Q13283 (whole entry, looked up): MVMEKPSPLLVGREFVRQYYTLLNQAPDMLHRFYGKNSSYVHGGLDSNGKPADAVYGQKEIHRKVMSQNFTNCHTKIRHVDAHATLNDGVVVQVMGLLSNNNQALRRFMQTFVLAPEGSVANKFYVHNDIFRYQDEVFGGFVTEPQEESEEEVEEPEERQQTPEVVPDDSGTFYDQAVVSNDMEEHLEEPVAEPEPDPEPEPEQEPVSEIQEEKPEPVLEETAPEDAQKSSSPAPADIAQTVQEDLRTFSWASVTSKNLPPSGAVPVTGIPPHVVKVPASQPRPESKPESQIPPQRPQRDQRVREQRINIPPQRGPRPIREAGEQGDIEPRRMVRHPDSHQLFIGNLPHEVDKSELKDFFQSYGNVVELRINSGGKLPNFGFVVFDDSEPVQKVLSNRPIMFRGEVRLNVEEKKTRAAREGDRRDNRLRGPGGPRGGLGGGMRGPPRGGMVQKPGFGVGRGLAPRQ
Technique: RNA Bind-n-Seq
Molecule type: RNA
Matrix: in vitro
Concentration: 1 µM
Notes: whole 134-nt RNA, ends assumed
With: 150 mM KCl
Baseline: input library
Direction: higher = stronger binding
Oligonucleotide	log2 enrichment
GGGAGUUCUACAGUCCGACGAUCUAACUUUAGAGGAGGAUCUGAUGGAUAUGGCAGUGGACGUGGAUUUGGGGAUGGUUAUAAUGGGUAUGGAGGAGGACCUGGAGGUGGCAAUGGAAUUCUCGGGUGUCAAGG	-0.31
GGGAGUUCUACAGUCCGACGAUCUGGGUGGUGGAUUUUGUUUAUUUUUUUAGCUCAUUUCCAGGGGUGGGAAUUUUUUUUUAAUAUGUGUCAUGAAUAAAGUUGUUUUUGAAAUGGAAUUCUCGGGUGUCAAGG	1.37
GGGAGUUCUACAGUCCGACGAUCUGUGCUACACAUCGUAUGUACCGAAUCGGGGUUUUUUUGGGGUUUUUUUGGUUUUUUUGGGGAAAGUAUUAUGUUACGCCGUUCGGAUCUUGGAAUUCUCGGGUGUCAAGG	-0.308
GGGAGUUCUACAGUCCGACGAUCUGCCAUGGACAAUAUUACCAGGCAGAACCAAUUCUACGAUACCCAAGUCAUCAAACAAGAAAACGAGUCAGGCUACGAGAGGAGACCACUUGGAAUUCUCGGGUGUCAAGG	-0.0584
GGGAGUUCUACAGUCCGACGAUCUAACUUUAGAGGAGGAUCUGAUGGAUAUGGUAGUGGACGUGGAUUUGGGGAUGGCUAUAAUGGGUAUGGAGGAGGACCUGGAGGUGGCAAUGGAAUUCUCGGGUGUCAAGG	-0.656
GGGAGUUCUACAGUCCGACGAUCAGUCCUGUGCUACACAUCGUAUGUACCGAAUCGGUUUUUUUGGAAAAAAAGGUUUGGAAAGUAUUAUGUUACGCCGUUCGGAUCUGCACUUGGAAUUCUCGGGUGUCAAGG	-0.665
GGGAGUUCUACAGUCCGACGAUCACCAUGCAGGUGGGCAUCUUUGGAAAGUGGGGCAAGGGGGGGAUAGGGAGGGGGGUAACACUUUGGGAACAGGUGGUCCCAGGUCGUUUCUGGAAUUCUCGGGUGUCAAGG	-0.603

Study 2
Target: Sal-like protein 4, full length isoform B (SALL4, Homo sapiens, UniProt Q9UJQ4-2, residues 1-616)
Technique: universal PBM
Molecule type: double-stranded DNA, one strand shown
Matrix: in vitro
Concentration: not given
Notes: 8-mer, flanks averaged, mean of replicates
Direction: higher = stronger binding
Oligonucleotide	E-score
AGCATATC	0.072
AAGATTAC	0.126
ACTGAGTG	-0.106
CCGTCACC	-0.181
AAAGTGCT	0.121
AAAAAAAC	0.253
GACCCACC	-0.266
AGGAAACG	0.0276
ACCTCCGT	-0.0997
ACGCATAC	0.0875
GGGCTCTA	-0.18
TCATGAAA	0.13
ATCCTTAG	0.0426
GCCTCTAC	-0.177

Study 3
Target: Centromere-binding protein 1, full length, N-terminal tag (CBF1, Saccharomyces cerevisiae, UniProt P17106, residues 1-351)
Sequence of UniProt P17106 (whole entry, looked up): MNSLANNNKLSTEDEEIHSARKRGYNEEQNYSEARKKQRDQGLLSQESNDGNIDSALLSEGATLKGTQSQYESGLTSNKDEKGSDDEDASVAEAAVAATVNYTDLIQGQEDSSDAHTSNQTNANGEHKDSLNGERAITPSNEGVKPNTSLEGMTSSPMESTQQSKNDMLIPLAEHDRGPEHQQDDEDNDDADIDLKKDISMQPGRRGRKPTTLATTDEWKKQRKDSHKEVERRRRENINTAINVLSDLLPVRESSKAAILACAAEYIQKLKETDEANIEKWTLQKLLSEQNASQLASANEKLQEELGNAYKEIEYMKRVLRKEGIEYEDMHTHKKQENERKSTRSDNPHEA
Technique: protein-binding microarray
Molecule type: double-stranded DNA, one strand shown
Matrix: in vitro
Concentration: 0.8 µM
Notes: whole 60-bp probe, no competitor
Direction: higher = stronger binding
Oligonucleotide	fluorescence intensity [a.u.]
CTAGTATTACATCAGCACGAGTAACAACTTATGTTCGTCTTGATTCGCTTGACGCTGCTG	602
GAAATAATAAAAGAAAACGTGCATATATACATATAGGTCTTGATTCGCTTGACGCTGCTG	841
GAAGAGGCGTTCCAACTGATGATGGATACTGCGTAGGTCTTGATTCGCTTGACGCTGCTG	497
CTATACAATGTTGATCTCCTGAGTATTGTTAATTTCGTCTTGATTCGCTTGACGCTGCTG	525
CCTAACTACTATACCCACATCACATAGCTTCGTACAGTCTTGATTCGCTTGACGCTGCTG	538
CTAGACAAGTAAATGAACGTGCTGCAATAAACCTTCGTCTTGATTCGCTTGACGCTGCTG	637
GAACGGCCAATGTGACACCAGTTCACTCGGCAATAGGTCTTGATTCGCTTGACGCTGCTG	629
GAAATTAATGTTTATTTCATGAGACTAGTCAAATAGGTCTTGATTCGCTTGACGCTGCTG	550
GAACAACGCCTTTCCAACATGCACACAAAACCATAGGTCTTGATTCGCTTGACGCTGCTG	565
GAATCTATACAACATCAGTTGCGTATCCGTTAATAGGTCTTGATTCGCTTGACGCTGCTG	483
GAATCAAATAAAGCGCACGATATATACCTATTTTAGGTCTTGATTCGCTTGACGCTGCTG	543
TGTACGAAGCTATTGCTGGTGACTATAGTAGTTAGGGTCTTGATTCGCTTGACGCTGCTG	531
CTAGTGGTCAGCAACCACGCAATACATCACATATTCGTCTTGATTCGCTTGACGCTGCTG	568
CTAGCGTACTCTTGTGACGTACCAAAGCGCTTATTCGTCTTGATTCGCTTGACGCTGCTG	530
CTAAAGGTACTTTTGCATGTGGGCGTCCACAGGTTCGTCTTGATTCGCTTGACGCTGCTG	550
CTAAGTTTACATGAAGATGTGACCAATGAGGAGTTCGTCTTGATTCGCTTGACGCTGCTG	588

Study 4
Target: RNA binding protein fox-1 homolog 2, RRM domain, GST-SBP tag (RBFOX2, Homo sapiens, UniProt O43251-10, residues 100-194)
Technique: RNA Bind-n-Seq
Molecule type: RNA
Matrix: in vitro
Concentration: 365 nM
Notes: natural RNA segment, single round, ends assumed
Baseline: no-protein control
Direction: higher = stronger binding
Construct (chain): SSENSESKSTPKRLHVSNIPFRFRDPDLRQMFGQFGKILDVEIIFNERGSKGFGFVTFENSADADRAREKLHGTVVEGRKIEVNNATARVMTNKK
Oligonucleotide	RBNS enrichment (R)
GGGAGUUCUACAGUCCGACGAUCUAAGCGUGUGUCUUUUUAACUUAGUCCUAAGGUAAUCCAUUCAGAAGACAGCUUGCCUUUGUGUUCCUAUGAAGACUGUCCCCAACCUUGGACGUGUCCCCUUUAUUUCAUGGAAUUCUCGGGUGCCAA	0.493
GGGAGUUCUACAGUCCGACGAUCCUUCAUCCUACCCAGAAAUUAUUGAUUUUCAAGUUUUAAAAAAAUUGUACCUUUUUUGCUGACAGAAAAGGAUCAGAUAUGUAUAAAAUAGUUGAACUUGACAGCAUAUAUGGAAUUCUCGGGUGCCAA	0.779
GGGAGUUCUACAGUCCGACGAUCUUAAGCUGAGAAGCACCAAGUCUGACCACCCGUGUGUUGAUGACUUGCAGUCAAUUAACUAUGUGUGCUGCUUCGUGCAACAGGAGAAAGCCAGAAGAGCAGCCUCGGGAUGGAAUUCUCGGGUGCCAA	0.279
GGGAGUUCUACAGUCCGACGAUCAUUUCUAUGCUUCUUCCUUUAUGAAAGCAUAACUUAAAACAUGAAAAUAAUGUUGGUUAUAGAAAUAUUUACUGUUCAAGGUCUGUAAUUGUAUUUUAAAAUGAUGUAGUUGGAAUUCUCGGGUGCCAA	0.924
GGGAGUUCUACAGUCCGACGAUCUUAGCCAGUCUGCUGUCCUGAAACCCAGAAGUGAUGGAGAGAAACCAACAAGAGAUCUCGAACCCUGUCUAGAAGGAAUGUAUUUGUUGCUAAAUUUCGUAGCACUGUUUUGGAAUUCUCGGGUGCCAA	0.676
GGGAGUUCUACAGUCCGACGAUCUCUGACCUCAUCACCAGAGCUGCUGGUGGGGCCUCAUUCCUUGCAGCAGAUGGGUGAGCUGCACCAAAGUACCUGAGCAGUUAGGCCCCAGGUCCCCACCUGACCACCUGUGGAAUUCUCGGGUGCCAA	0.308
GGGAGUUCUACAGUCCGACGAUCCUCCUUUCAGUGUUCUUGCUGUUCAAGUUAUUCCUCUCAGACAUCCUCCAUUGUCCCACGCACUCCUUGGCAGCAGAAUGCUGGCAGCUUGUGACCCUCAUGUUUCCUGUUGGAAUUCUCGGGUGCCAA	0.56
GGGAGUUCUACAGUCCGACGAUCUAGAUUGUCCUUGGGUGAGUGAGAAAAAACACUUUGCAUUGCUUUCAGGUUGGUGGAAAAUGUCAGUGGUGUAGUGUUGAGGACCUCACUAUUUUUUUUUUUAAAUCAUUUGGAAUUCUCGGGUGCCAA	0.922
